Measured values gathered from unrelated publications.
Every numbered part comes from another study and shows a few of its results, in no order.

Set 1 — technique: protein binding microarray; form: double-stranded DNA, one strand shown; sample: in vitro; tested at: not given; reference: not given; reading: higher = stronger binding
Target: Histone acetyltransferase KAT6A, winged helix 2, GST fusion (KAT6A, Homo sapiens, UniProt Q92794, residues 85-181)
Setting: 8-mer, flanks averaged, mean of 2 arrays, mostly near background
Residues (chain): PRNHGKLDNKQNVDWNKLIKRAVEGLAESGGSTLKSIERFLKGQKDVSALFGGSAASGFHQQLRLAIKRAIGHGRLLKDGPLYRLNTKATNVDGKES
Strand	E-score
ATTTAGGC	0.0272
GCCGGAGA	0.0413
CATAGATC	-0.0941
ACAGACTA	-0.134
CCCTCATA	-0.217
CTCCACGA	-0.0322

Set 2 — technique: protein-binding microarray; form: double-stranded DNA, one strand shown; sample: in vitro; tested at: 940 nM top; setting: 60-bp whole probe; added: salmon DNA 0.4 mg/ml; reference: random background probes; reading: higher = stronger binding; constant ends, left off below: GCCTAGCAC … GTCTTGATTCGCTTGACGCTGCTG
Target: Interferon regulatory factor 5, full length, phosphomimetic (IRF5, Homo sapiens, UniProt Q13568-2, residues 1-514, S451D/S453D/S456D/S462D)
Strand	fitted relative affinity [z-score]
CTCCCATTATATTTTAATCAGTGCTAG	1
TAAGATTTCGGGTTTCGATTAGTGCTA	5.78
GACGGTATCGGACTGGGGAGGTGCTAG	2.63
CTCTCTTTCCACTTGTCTTTGTGCTAG	2.63
GACGAACTGAGACTGGAGAAGTGCTAG	-0.0739
TTAGATATCCGTCTCGATTAGTGCTAG	1.45
GACGATCTCATTCTCGAGACGTGCTAG	1.31

Set 3 — technique: universal PBM; form: double-stranded DNA, one strand shown; sample: in vitro; tested at: 600 nM; reading: higher = stronger binding
Target: Sal-like protein 4, full length isoform A (SALL4, Homo sapiens, UniProt Q9UJQ4, residues 1-1053)
Chain of UniProt Q9UJQ4 (whole entry, looked up): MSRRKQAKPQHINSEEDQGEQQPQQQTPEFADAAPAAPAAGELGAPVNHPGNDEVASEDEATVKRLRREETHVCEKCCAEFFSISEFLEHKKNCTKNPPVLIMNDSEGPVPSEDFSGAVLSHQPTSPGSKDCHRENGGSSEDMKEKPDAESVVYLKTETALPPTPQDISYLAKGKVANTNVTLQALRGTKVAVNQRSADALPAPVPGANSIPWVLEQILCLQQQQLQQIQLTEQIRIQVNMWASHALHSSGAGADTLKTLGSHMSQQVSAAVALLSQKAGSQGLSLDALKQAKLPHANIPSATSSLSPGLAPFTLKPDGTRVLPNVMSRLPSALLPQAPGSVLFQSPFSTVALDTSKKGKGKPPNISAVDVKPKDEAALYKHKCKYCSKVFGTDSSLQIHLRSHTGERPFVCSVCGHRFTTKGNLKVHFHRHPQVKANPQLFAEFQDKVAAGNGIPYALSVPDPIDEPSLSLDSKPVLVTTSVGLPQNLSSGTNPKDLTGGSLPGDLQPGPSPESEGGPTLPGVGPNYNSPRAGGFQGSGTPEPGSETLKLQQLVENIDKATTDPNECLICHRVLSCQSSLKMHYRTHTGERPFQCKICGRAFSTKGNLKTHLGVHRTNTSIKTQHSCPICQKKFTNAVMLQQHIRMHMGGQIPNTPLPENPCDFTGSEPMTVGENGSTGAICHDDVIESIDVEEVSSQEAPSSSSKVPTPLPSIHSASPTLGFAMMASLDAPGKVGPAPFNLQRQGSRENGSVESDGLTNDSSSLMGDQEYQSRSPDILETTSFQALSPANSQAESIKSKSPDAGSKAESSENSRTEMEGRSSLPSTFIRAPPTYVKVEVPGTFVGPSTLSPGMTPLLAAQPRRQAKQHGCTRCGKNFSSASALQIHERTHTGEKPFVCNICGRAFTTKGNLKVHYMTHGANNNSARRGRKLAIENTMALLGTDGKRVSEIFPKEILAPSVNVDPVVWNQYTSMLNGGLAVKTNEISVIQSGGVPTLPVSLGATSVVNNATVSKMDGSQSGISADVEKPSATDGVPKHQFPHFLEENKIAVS
Setting: 8-mer, flanks averaged, mean of replicates
Strand	E-score
CAACTAGA	0.133
ACGGTCGC	-0.247
CATGCGTC	-0.164
ACACCCGG	-0.295
CCACGAAA	-0.0775
GGGTGCAC	-0.289

Other studies, line by line
Substance	target	test	test system	setting	scale	measurement	value
PhoQ, residues 284 288 289 292 302 303 SLCLSL	PhoP, residues 12 14 15 18 19 AGCRL (Escherichia coli, UniProt P23836)	Sort-seq, refers to: YFP reporter	E. coli	PhoQ-PhoP variant library, added: 10 µM Mg2+	reference: high Mg2+ state, higher = stronger signaling	fold induction	19.2

Excerpt of the above (set 1):
Strand	E-score
GCCGGAGA	0.0413
CCCTCATA	-0.217
CTCCACGA	-0.0322
